Values quoted from earlier work as cited in several papers.
Protocols differ between the studies behind these lines. “And” joins repeats or separate records; there may be more than shown. ± gives the spread as reported.
Chain of UniProt P21918 (whole entry, looked up): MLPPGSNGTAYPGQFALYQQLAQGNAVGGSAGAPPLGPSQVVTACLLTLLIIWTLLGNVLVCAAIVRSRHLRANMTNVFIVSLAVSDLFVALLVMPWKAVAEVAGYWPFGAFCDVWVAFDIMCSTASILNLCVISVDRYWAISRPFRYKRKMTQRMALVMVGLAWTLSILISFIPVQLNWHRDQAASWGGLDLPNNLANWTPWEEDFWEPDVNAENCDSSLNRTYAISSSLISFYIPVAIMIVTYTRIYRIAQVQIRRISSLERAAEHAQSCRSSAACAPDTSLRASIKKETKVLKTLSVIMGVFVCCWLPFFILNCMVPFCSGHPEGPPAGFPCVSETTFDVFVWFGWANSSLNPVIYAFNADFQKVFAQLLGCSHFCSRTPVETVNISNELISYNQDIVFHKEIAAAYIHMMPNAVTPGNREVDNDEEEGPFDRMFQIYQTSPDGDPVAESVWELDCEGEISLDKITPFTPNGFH
Chain of UniProt P18825 (whole entry, looked up): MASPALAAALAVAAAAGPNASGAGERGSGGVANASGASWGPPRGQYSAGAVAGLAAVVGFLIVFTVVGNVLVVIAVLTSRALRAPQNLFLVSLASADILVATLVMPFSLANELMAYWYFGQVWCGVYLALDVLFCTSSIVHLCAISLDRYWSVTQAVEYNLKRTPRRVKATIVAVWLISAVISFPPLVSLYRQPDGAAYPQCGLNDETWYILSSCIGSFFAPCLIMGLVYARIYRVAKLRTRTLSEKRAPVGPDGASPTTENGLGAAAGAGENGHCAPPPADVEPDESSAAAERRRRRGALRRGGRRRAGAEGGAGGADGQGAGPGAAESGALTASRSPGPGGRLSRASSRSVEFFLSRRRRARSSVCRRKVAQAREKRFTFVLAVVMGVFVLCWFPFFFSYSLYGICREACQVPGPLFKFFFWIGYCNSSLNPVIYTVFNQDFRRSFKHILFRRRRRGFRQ

Under “HbA1c change from baseline”, `tirzepatide` is recorded as -2.24% (type 2 diabetes patients; 10 mg weekly, 40 weeks).
The IC50 of `CNC(C)C(=O)c1ccc(C)cc1` (centres unmarked) is reported as 422 ± 26 nM (serotonin transporter, rat; serotonin uptake, inhibitor; brain synaptosomes).
The Ki of `C=CCN(CC=C)CCc1c[nH]c2ccc(F)cc12` is reported as > 10000 nM (D(1B) dopamine receptor (DRD5, Homo sapiens, UniProt P21918)).
`NC1CC1c1ccc(NC(=O)C(Cc2ccccc2)NC(=O)OCc2ccccc2)cc1` (centres unmarked) has an IC50 of 10200 ± 1200 nM (MV4-11 (AML)).
For `CC(=O)c1ccc(NC(=O)CSc2nc(-c3ccccc3Cl)ns2)cc1`, the IC50 was > 32000 nM (Trypanosoma cruzi; Tulahuen C4 LacZ).
The IC50 of `CCCC(C(=O)c1ccc2c(c1)OCO2)N1CCCC1` (centres unmarked) is reported as 26 ± 8 nM (norepinephrine transporter, rat; norepinephrine uptake, inhibitor; brain synaptosomes).
The EC50 of `CCC(CC)COC(=O)[C@H](C)N[P@](=O)(OC[C@H]1O[C@@](C#N)(c2ccc3c(N)ncnn23)[C@H](O)[C@@H]1O)Oc1ccccc1` is reported as 9.9 nM (SARS-CoV-2; viral replication; HAE cells).
`CCCCCc1cc(O)c2c(c1)OC(C)(C)[C@@H]1CC=C(C)C[C@@H]21` — result for “intraocular pressure decrease”: 10.8 ± 2.04 mmHg (rabbit alpha-chymotrypsin glaucoma model; topical, 50 µL of 0.4% w/v, submicron emulsion).
The MIC of `COc1ccc(-c2n(CC(=O)OC3CC(C)CCC3C(C)C)c3ccccc3[n+]2C)cc1` (centres unmarked) is reported as 16.6 µM (Mycobacterium tuberculosis; >99% growth suppression).
`Cc1nc([C@@H](CN)NC(=O)c2ccc(-c3ccc(F)c(F)c3)[nH]2)sc1CO` (single isomer, unassigned) has an IC50 of 4800 ± 800 nM (HIV-1; viral replication; MT-2, IIIB; multi-cycle).
The EC50 of `NC(=O)c1ncn([C@@H]2O[C@H](CO)[C@@H](O)[C@H]2O)n1` is reported as 3700 nM (influenza A virus H3N2; viral replication, MTT; Ishikawa).
`C[C@]12CCC(=O)CC1=CC[C@@H]1[C@@H]2CC[C@]2(C)C(=O)CC[C@@H]12` has a kcat of 10700 ± 400 s⁻¹ (ketosteroid isomerase Y30F/Y55F; substrate; pH 7.0, 3.3 % methanol).
The IC50 of `CCCCCn1cc(C(=O)c2cccc3ccccc23)c2ccccc21` is reported as 15 nM (cultured autaptic hippocampal neurons; excitatory postsynaptic currents).
For `CCCC(C(=O)c1ccc(O)c(OC)c1)N1CCCC1` (centres unmarked), the IC50 was 407 ± 43 nM (norepinephrine transporter, rat; norepinephrine uptake, inhibitor; brain synaptosomes).
`CO[C@H]1C[C@H](O[C@H]2CC[C@@]3(C)[C@@H](C2)C[C@@H]2O[C@]24[C@@H]3[C@H](O)C(=O)[C@]2(C)[C@@H](C3=CC(=O)OC3)CC[C@]42O)O[C@@H](C)[C@@H]1O` gave an IC50 of 440 ± 80 nM (OVCAR-5; cell viability; 72 h).
Under “relative translation efficiency”, `CO[C@H]1[C@@H](O)[C@H]([n+]2cn(C)c3c(=O)[nH]c(N)nc32)O[C@@H]1COP(=O)([O-])OP(=O)(O)OP(=O)(O)OC[C@H]1O[C@@H](n2cnc3c(=O)[nH]c(N)nc32)[C@H](O)[C@@H]1O` is recorded as 1.88 ± 0.4 (rabbit reticulocyte lysate; mRNA capped with compound; relative to: m7GpppG-capped mRNA).
`CNC(C)C(=O)c1ccc2c(c1)OCO2` (centres unmarked) has an IC50 of 1020 ± 59 nM (serotonin transporter, rat; serotonin uptake, inhibitor; brain synaptosomes).
For `O=C(O)CCCO`, food-maintained responding read “decreased” (baboon; 320 mg/kg, first 2 h; relative to: vehicle).
`COc1ccc(OCc2n(CC(=O)OC3CC(C)CCC3C(C)C)c3ccccc3[n+]2C)cc1` (centres unmarked) has an MIC of 16 µM and 15.9 µM (Mycobacterium tuberculosis; >99% growth suppression).
`C=CCN(CC=C)CCc1c[nH]c2ccccc12` has a Ki of 901 nM (Alpha-2C adrenergic receptor (ADRA2C, Homo sapiens, UniProt P18825); binding; cloned human receptor; added: [3H]rauwolscine).
For `CC1CCC(C(C)C)C(OC(=O)Cn2c(-c3ccc(F)cc3)[n+](C)c3ccccc32)C1.[Cl-]` (centres unmarked), the MIC was 28 µM (Mycobacterium tuberculosis; >99% growth inhibition).
`CCCCCCCCCCCCOC(=O)O[C@H]1CC[C@H]2[C@@H]3CCC4=CC(=O)CC[C@@H]4[C@H]3[C@@H](C)C[C@]12C`: “duration of LH suppression” ≥ 10 weeks (refers to: plasma LH; castrated adult rat; subcutaneous, 12 mg/kg single).
`C=C(C)[C@@H]1CCC(C)=C[C@H]1c1c(O)cc(CC2CN(C(C)=O)C2)cc1O` has an EC50 of 23 nM (hippocampal cultures; neuroprotection; added: ethanol).

Repeated from above:
For `CC(=O)c1ccc(NC(=O)CSc2nc(-c3ccccc3Cl)ns2)cc1`, the IC50 was > 32000 nM (Trypanosoma cruzi; Tulahuen C4 LacZ).
The IC50 of `CCCC(C(=O)c1ccc2c(c1)OCO2)N1CCCC1` (centres unmarked) is reported as 26 ± 8 nM (norepinephrine transporter, rat; norepinephrine uptake, inhibitor; brain synaptosomes).
